Results from different studies.
Parts stem from different laboratories: compare values within a part only. Values joined by “and” are separate records of one study, mostly repeats; a detail may differ.

Sample 1
SMILES: C[C@@H]1CN(c2ccc(-c3cc(C(=O)NCCOCCOCCOCCOCCNC(=O)Cn4cc(-c5[nH]cc(C(=O)N[C@@H](CC(N)=O)c6ccc(F)c(Cl)c6)c5-c5ccc(Cl)cc5F)cn4)ccc3F)cc2NC(=O)c2c[nH]c(=O)cc2C(F)(F)F)C[C@H](C)N1C
Observed: thermal unfolding
Method: differential scanning fluorimetry
Tested at: 5.5 µM
Direction: higher = more unfolded
Measurement: SYPRO Orange fluorescence
DCAF1: DDB1- and CUL4-associated factor 1 (DCAF1, Homo sapiens, UniProt Q9Y4B6)
Sequence of UniProt Q9Y4B6 (whole entry, looked up): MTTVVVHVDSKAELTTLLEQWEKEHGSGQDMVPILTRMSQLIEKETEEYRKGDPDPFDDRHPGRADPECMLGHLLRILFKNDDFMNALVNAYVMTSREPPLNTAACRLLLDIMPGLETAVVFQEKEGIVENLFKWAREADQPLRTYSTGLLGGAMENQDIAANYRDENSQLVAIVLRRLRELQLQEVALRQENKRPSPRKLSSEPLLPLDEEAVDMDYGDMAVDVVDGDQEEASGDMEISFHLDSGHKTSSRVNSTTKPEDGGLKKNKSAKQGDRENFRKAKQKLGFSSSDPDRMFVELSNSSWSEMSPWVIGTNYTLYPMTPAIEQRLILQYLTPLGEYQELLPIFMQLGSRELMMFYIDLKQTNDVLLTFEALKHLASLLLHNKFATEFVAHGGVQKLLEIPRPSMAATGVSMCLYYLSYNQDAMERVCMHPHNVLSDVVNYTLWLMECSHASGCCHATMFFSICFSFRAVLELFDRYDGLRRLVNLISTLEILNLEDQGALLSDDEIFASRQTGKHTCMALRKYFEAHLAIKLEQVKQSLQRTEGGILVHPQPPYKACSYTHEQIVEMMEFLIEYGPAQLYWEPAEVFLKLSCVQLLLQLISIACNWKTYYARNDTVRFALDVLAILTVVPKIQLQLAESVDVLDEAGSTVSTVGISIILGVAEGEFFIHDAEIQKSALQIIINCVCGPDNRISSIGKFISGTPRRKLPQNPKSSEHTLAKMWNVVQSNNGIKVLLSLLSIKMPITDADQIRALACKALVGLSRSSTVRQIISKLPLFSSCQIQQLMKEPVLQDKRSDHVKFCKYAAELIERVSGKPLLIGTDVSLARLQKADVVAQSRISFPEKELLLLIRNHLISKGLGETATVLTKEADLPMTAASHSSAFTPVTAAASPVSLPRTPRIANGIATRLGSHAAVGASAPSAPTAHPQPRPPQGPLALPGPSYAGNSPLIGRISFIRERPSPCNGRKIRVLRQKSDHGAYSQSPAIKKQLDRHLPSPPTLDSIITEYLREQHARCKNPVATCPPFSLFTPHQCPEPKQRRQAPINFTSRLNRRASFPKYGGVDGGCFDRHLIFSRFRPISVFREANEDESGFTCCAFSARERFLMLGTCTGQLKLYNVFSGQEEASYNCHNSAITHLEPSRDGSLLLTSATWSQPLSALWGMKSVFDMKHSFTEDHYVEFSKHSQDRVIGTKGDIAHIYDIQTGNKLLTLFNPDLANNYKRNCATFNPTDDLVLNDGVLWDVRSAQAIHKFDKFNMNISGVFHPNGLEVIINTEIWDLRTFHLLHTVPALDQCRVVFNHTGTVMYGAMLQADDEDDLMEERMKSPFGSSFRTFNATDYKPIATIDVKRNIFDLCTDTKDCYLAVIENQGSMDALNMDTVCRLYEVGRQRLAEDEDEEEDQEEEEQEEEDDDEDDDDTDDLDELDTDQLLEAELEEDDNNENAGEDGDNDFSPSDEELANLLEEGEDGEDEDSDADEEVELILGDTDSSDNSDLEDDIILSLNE
WDR5: WD repeat-containing protein 5 (WDR5, Homo sapiens, UniProt P61964)
DCAF1; 33.8 °C: 8530 a.u.
DCAF1; 41.6 °C: 11000 a.u.
DCAF1; 88.61 °C: 36500 a.u.
DCAF1; 88.21 °C: 36800 a.u.
WDR5; 48.6 °C: 14500 a.u.
DCAF1; 72.01 °C: 52400 a.u.
DCAF1; 37.2 °C: 9440 a.u.
WDR5; 57.01 °C: 12600 a.u.
WDR5; 25 °C: 14800 a.u.
DCAF1; 37.4 °C: 9490 a.u.
WDR5; 79.61 °C: 22100 a.u.

Sample 2
Compound: Cc1ncsc1-c1ccc(C(CO)NC(=O)C2CC(O)CN2C(=O)C(C(C)C)n2cc(-c3ccc(COc4c(-c5c(C)c(F)cc6[nH]ncc56)c(C5CC5)cc5c(N6CC7CC6CN7)nc(OC6CCOCC6)nc45)cc3)nn2)cc1 (stereo not drawn)
Measurement: tumour volume
GP5d xenograft, mouse; 30 mg/kg twice weekly, day 4: 193 mm3 and 135 mm3 and 120 mm3 and 130 mm3 and 111 mm3
ASPC1 xenograft, mouse; 30 mg/kg twice weekly, day 14: 162 mm3 and 96.7 mm3 and 144 mm3 and 112 mm3
mouse, lung LXFA sample A PDX; 30 mg/kg twice weekly, day 6: 178 mm3 and 96.8 mm3 and 74 mm3 and 148 mm3 and 205 mm3 and 15 mm3 and 93.2 mm3 and 113 mm3
ASPC1 xenograft, mouse; 30 mg/kg once weekly, day 11: 195 mm3 and 211 mm3 and 184 mm3 and 189 mm3 and 156 mm3
HPAC xenograft, mouse; 30 mg/kg twice weekly, day 7: 197 mm3 and 196 mm3 and 185 mm3 and 247 mm3 and 269 mm3
mouse, PK-59 xenograft; subcutaneous, 30 mg/kg once daily, day 13: 49.6 mm3 and 52.2 mm3 and 69.6 mm3 and 45.9 mm3 and 67.6 mm3
mouse, PK-59 xenograft; 1 mg/kg, day 7: 557 mm3 and 619 mm3 and 508 mm3 and 576 mm3 and 661 mm3
HPAC xenograft, mouse; 30 mg/kg twice weekly, day 0: 226 mm3 and 215 mm3 and 213 mm3 and 307 mm3 and 203 mm3
mouse, PK-59 xenograft; 3 mg/kg, day 10: 473 mm3 and 565 mm3 and 426 mm3 and 542 mm3 and 436 mm3
mouse, HT-29 xenograft; sc, 30 mg/kg once daily, day 3: 351 mm3 and 334 mm3 and 274 mm3 and 303 mm3 and 296 mm3

Sample 3
Organism: Arabidopsis thaliana
Strain: Col-0
Tested at: 3.125 µg/mL
Setting: seed germination
Measurement: root length
CCN1C(=O)C(O)(C(=O)O)Oc2cc(F)ccc21 (stereo not drawn): 1.06 cm
O=C(O)C1(O)Oc2ccccc2N(Cc2ccccc2)C1=O (stereo not drawn): 1.23 cm
O=C(O)C1Oc2cc(F)ccc2N(Cc2ccccc2)C1=O (stereo not drawn): 1.13 cm
CC(C)=CCN1C(=O)C(O)(C(=O)O)Oc2cc(F)ccc21 (stereo not drawn): 1.17 cm
O=C(O)C1(O)Oc2cc(Cl)ccc2N(Cc2ccccc2)C1=O (stereo not drawn): 1.23 cm
O=C(O)C1(O)Oc2cc(Br)ccc2N(Cc2ccccc2)C1=O (stereo not drawn): 1.17 cm
COc1ccc2c(c1)OC(O)(C(=O)O)C(=O)N2Cc1ccccc1 (stereo not drawn): 1.22 cm
CN1C(=O)C(O)(C(=O)O)Oc2cc(F)ccc21 (stereo not drawn): 1.1 cm
CC(C)(C)c1ccc(Oc2ccc3c(c2)OC(O)(C(=O)O)C(=O)N3Cc2ccccc2)cc1 (stereo not drawn): 1.1 cm
Cc1ccc2c(c1)OC(O)(C(=O)O)C(=O)N2Cc1ccccc1 (stereo not drawn): 1.17 cm
CCCN1C(=O)C(O)(C(=O)O)Oc2cc(F)ccc21 (stereo not drawn): 1.08 cm

Single results of other studies
PKMYT1: Membrane-associated tyrosine- and threonine-specific cdc2-inhibitory kinase (PKMYT1, Homo sapiens, UniProt Q99640)
Sequence of UniProt Q99640 (whole entry, looked up): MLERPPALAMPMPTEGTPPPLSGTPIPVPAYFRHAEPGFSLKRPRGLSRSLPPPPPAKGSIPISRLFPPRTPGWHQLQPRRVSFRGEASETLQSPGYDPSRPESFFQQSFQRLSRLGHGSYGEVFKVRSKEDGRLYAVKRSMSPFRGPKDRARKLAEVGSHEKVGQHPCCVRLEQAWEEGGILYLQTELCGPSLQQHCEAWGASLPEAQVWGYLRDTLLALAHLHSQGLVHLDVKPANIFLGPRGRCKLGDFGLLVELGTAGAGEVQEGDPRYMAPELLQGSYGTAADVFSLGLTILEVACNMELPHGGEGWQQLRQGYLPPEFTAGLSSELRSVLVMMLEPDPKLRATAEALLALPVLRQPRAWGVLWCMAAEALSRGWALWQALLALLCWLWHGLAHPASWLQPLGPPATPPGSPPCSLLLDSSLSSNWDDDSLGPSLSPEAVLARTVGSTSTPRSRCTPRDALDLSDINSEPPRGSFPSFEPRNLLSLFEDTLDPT
Cc1ccc(O)c(C)c1-c1cnc2[nH]c(-c3cnc(N4CCC5(CC4)CC(N4CCN(c6ccc(N[C@H]7CCC(=O)NC7=O)cc6F)CC4)CO5)nc3)cc2c1C#N (single isomer, unassigned) — Vd (male cynomolgus monkey, plasma; intravenous, 1 mg/kg): 5.1 L/kg
Cc1ccc(O)c(C)c1-c1cnc2[nH]c(-c3cnc(N4CCC(CCN5CCN(c6ccc(N7CCC(=O)NC7=O)cc6F)CC5)CC4)nc3)cc2c1C#N — inhibition (PKMYT1; binding, HTRF; 37.04 nM): 97.5% and 98.8%
Cc1ccc(O)c(C)c1-c1cnc2[nH]c(-c3cnc(N4CCC(CN5CCN(c6ccc(NC7CCC(=O)NC7=O)cc6F)CC5)CC4)nc3)cc2c1C#N (stereo not drawn) — phospho-CDK1 (Thr14) level (HCC1569; CDK1 Thr14 phosphorylation, in-cell western; 1000.00 nM; lower = stronger inhibition): 112 a.u.
Cc1ncc(-c2cc3c(C(N)=O)c(-c4c(C)ccc(O)c4C)cnc3[nH]2)cn1 — inhibition (PKMYT1; binding, HTRF; 0.51 nM): -9% and -16.6%

Excerpt of the above (sample 2):
mouse, lung LXFA sample A PDX; 30 mg/kg twice weekly, day 6: 178 mm3 and 96.8 mm3 and 74 mm3 and 148 mm3 and 205 mm3 and 15 mm3 and 93.2 mm3 and 113 mm3
ASPC1 xenograft, mouse; 30 mg/kg once weekly, day 11: 195 mm3 and 211 mm3 and 184 mm3 and 189 mm3 and 156 mm3
HPAC xenograft, mouse; 30 mg/kg twice weekly, day 7: 197 mm3 and 196 mm3 and 185 mm3 and 247 mm3 and 269 mm3
mouse, PK-59 xenograft; subcutaneous, 30 mg/kg once daily, day 13: 49.6 mm3 and 52.2 mm3 and 69.6 mm3 and 45.9 mm3 and 67.6 mm3
mouse, PK-59 xenograft; 1 mg/kg, day 7: 557 mm3 and 619 mm3 and 508 mm3 and 576 mm3 and 661 mm3
